Measured values of several laboratories.
Each numbered part is a random draw from the data of one study; scales do not carry over between parts.

Set 1 — method: protein-binding microarray; molecule type: double-stranded DNA, one strand shown; matrix: in vitro; concentration: 2540 nM top; notes: 60-bp whole probe; with: salmon DNA 0.4 mg/ml; reference: random background probes; direction: higher = stronger binding; constant ends, left off below: GCCTAGCAC … GTCTTGATTCGCTTGACGCTGCTG
Target: Interferon regulatory factor 3, full length, phosphomimetic (IRF3, Homo sapiens, UniProt Q14653, residues 1-427, S386D/S396D/S398D/S402D/T404D/S405D)
Construct (chain): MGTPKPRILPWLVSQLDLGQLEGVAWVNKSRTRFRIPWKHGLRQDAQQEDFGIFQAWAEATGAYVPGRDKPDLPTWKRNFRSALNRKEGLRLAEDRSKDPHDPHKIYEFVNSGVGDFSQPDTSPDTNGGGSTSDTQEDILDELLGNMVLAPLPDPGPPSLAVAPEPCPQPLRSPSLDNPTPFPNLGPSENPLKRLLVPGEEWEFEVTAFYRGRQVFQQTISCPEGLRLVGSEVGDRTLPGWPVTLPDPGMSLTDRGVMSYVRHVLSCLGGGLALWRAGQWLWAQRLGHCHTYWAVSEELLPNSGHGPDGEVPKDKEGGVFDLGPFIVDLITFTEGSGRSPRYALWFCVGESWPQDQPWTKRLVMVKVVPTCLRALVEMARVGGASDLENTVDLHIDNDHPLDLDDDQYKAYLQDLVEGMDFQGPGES
Strand | fitted relative affinity [z-score]
TTAGTTATCAGTCTCGATTAGTGCTAG | 1.94
TCACCCCTCTCTTTCCAACTGTGCTAG | 1.6
TCACCTCTCACGCATCTGACTGTGCTA | 0.291
TTAGGGCTCCTTTTCCTTTAGTGCTAG | 3.8
GACTGTATCGGTCTCGGGACGTGCTAG | 4.56
GACGGTATCGGTCTCAGGACGTGCTAG | 4.05
TTATGACTGGGGTTTCGGTTAGTGCTA | 2.5
GACCGACTGGGACTGGGGACGTGCTAG | -0.418
GACGGTATCGACACGGGGGACGTGCTA | 0.606
TTAGATATCAGTCTCCATTAGTGCTAG | 1.87
GACGGACTGGACTATCCGGACGTGCTA | 0.0249
TTTGGACTGGGGTATCGGTTAGTGCTA | -0.0796
TCACATTGCTTTCTCTTACTGTGCTAG | 1.61
GACGAACTGGGGTATCGAAACGTGCTA | -0.0373
TTAGGTATCGGACTGTGTTAGTGCTAG | 1.31
TTAGGTTTCGACACTCGGTTAGTGCTA | 2.37
TGGAGAGCATATTCTGTGACGTGCTAG | -0.476
TTAGGTAGCGACACTGGGTTAGTGCTA | -0.631
GACGATCGCAGTATCGAGACGTGCTAG | 0.377
TCATTTCTCTGCTACCCTACTGTGCTA | 2.34
TAAGGACTGGACTATCGGTTAGTGCTA | -0.516
GACGATATCAGACTGGAGATGTGCTAG | 0.175
GACGGACTGGGACTTGGGACGTGCTAG | -0.91
ACAGATGAGGAACCAAGGCCGTGCTAG | -0.262
TTCCAATTCTTTTTATGCTTGTGCTAG | 2.32

Set 2 — method: protein binding microarray; molecule type: double-stranded DNA, one strand shown; matrix: in vitro; concentration: not given; reference: not given; direction: higher = stronger binding
Target: Histone acetyltransferase KAT6A, both winged helices, GST fusion (KAT6A, Homo sapiens, UniProt Q92794, residues 1-181)
Notes: 8-mer, flanks averaged, mean of 2 arrays, mostly near background
Construct (chain): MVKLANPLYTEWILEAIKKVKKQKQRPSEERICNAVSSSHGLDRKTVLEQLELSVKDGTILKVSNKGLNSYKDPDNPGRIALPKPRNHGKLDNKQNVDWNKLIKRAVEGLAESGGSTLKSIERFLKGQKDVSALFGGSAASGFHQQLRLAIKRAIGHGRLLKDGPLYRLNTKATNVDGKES
Strand | E-score
AGGGAAAA | -0.118
AGTTCGTG | -0.101
TAGGAACA | -0.173
ACTCTGAG | -0.239
ATCTCTGC | -0.17
CGTGTACC | 0.058
CTCACAAA | 0.0031
ACTGGTCT | -0.184
TCTTGACA | -0.156
AAAGGTCA | -0.0122
CCCGGCCA | 0.161
CAGATAAA | -0.05
AGGGTAGG | -0.15
TATCCTCA | -0.119
GAATCAGC | -0.0493
AAATATAG | 0.107
AAGCCAGA | -0.0316
CTCCCATA | -0.216
ATTTAGGA | -0.191
GGGGCGGA | 0.142
CAGGTGGC | -0.189
GAGTAGCA | -0.237
TAGTGTGA | -0.146
CGGTGTAG | 0.121
TGAGGGAA | -0.115

Set 3 — method: RNA Bind-n-Seq; molecule type: RNA; matrix: in vitro; concentration: 365 nM; reference: no-protein control; direction: higher = stronger binding
Target: RNA binding protein fox-1 homolog 2, RRM domain, GST-SBP tag (RBFOX2, Homo sapiens, UniProt O43251-10, residues 100-194)
Notes: natural RNA segment, single round, ends assumed
Constant ends, left off below: GGGAGUUCUACAGUCCGACGAUC … UGGAAUUCUCGGGUGCCAA
Construct (chain): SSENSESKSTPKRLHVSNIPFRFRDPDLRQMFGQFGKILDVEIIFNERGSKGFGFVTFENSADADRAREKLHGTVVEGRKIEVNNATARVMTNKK
Strand | RBNS enrichment (R)
GACCACAUAAGAAGGCAAUUUUAGUGUAUUAAUCAUAGAUUAUUAUAAACUAUAAACUUAAGGGCAAGGAGUUUAUUACAAUGUAUCUUUAUUAAAACAAAAGGGUGUAU | 0.424
UUUGCACUCCUCCAUCCCACCUGUGAGUGGGAGUUUACCUGUUACCCUGUAAUUAAAAACAAAGGCUAGGUAACUAUUGUGCCAGUGUUGACAGUUUAAACUGCUAACAG | 0.239
AAAUAUUAUACUUUAUAGCAGUGGAUUACCAACACCUUGACUUCUUUGUUACAGUGCUAACAUCUUUUUUUUUGUGCAGGUAUCCAUGAUUAUUAAGCAGGGUGGAAGUU | 0.408
UCAGCCCUCUCUCUUGUUCCCUUUCUGAGCAUGUGGUCCUUCCCCAGGCUGUGGGACAGCUGCCUUCCCACGAAAGUGUAAAGCAGUAUUAAGAUCAUUACUGCAUGUGC | 5.2
AGUAACCACCUAUUUAUUUUACCUCUUUCCCAAACCUGGAGCAUUUAUGCCUAGGCUUGUCAAGAAUCUGUUCAGUCCCUCUCCUUCUCAAUAAAAGCAUCUUCAAGCUU | 1.12
GGAGCCCAAGAAGAGCUAGACUGACCCUGUAAACUUAGGGUUCCAUUUGGUCUUAACACUAUGGGCUUUGUUUGCUCUGUGCUGCUGUGCCACUGCUGUUGUCUGCUCAU | 0.368
AGAAUGUUCAAAUAAAAUUUCCUGACCAAAUUGUUUUGUGGAAAUAGAUGUGUUUGCAAUUUGAAGAUAUCUUUCUGUCCAGAAGGCAAAAUUACCGAAUGCCAUUUUUA | 1.77
CCAGAAUGAGAGACUCAGCCCAGGAGGACCAGGAUCUUGCCAAAGCAGUAGCAUCCCAUUUGUACCAAAACAGUGUUCUUGCUCUAUAAACCGUGUUAGCAGCUCAGGAA | 0.841
GAAGCACUGCAGUGUGCAGAGGCUCUCCUUGACCUUUCUACUUUUGACACGGGUCCCUGUUCGAGAAUUUCCAGUUAGCCCCAGAAGAGACUGGUUCUCCUGACCCCCAC | 0.523
GAAAAGUAGCAUUCUAUAAAUACUAUUAAACAACUUAGCUAUAUUAUUUUUAAGUAUUAAAUUAUAUGUCAAGCAGUUAAAGUGAAUUUCAGAGUAAAAGUAAGGCAUGU | 2.06
UAUUUCUUGCUAUGAGAGUAUUUUGUAUGGUAUUAUUUCUUUUUUGUUGUAAGCUAACAAGUGGAGAAACACUUUUUUUUUUCAGAAAUGGUUUGGAUUAUUUAUAGUCC | 0.634
AAUACAUAAAGAUAAAUUUAUUUUCACACAGUCCACAAGGGGUAUAUCUUGUAGUUUUCAGAAAAGCCUUUGGAAAUCUGGAUCAGAAAAUAGAUACCAUGGUUUGUGCA | 1.06

Set 4 — method: RNA Bind-n-Seq; molecule type: RNA; matrix: in vitro; concentration: 1 µM; notes: whole 134-nt RNA, ends assumed; with: 150 mM KCl; reference: input library; direction: higher = stronger binding
Target: Ras GTPase-activating protein-binding protein 1, RRM domain (G3BP1, Homo sapiens, UniProt Q13283)
Sequence of UniProt Q13283 (whole entry, looked up): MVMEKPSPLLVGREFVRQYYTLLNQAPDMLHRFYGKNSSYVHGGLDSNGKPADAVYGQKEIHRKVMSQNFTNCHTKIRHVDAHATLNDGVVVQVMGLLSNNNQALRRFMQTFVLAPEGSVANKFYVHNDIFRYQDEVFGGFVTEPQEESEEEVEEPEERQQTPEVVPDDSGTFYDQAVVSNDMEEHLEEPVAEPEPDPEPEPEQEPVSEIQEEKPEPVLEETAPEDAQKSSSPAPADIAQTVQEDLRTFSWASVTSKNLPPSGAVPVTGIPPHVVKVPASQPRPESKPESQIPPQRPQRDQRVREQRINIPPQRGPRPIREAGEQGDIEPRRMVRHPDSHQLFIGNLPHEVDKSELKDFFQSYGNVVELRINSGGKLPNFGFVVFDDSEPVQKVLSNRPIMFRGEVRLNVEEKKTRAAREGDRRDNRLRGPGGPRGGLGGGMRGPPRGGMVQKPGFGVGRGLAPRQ
Constant ends, left off below: GGGAGUUCUACAGUCCGACGAUC … UGGAAUUCUCGGGUGUCAAGG
Strand | log2 enrichment
CAAGUCCUGUGCUACACAUCGUAUGUACCGAAUCGGGUUUGGUUUGGGGUUUGGGGAAAGUAUUAUGUUACGCCGUUCGGAUCUGCACUU | 0.0809
UGGCCCUGGUGGCAUGCGGGGAGGAAGAGGUGGCCUCAUGGAUCGUGGUGGUCCCGGUGGAACGUUCAGAGGUGGCCGUGGUGGAGACAG | 0.734
AGUCCUGUGCUACACAUCGUAUGUACCGAAUCGGUUUUUGGGGUUUUUGGUUUUUGGAAAGUAUUAUGUUACGCCGUUCGGAUCUGCACU | -0.0893
CUCAAGUCCUGUGCUACACAUCGUAUGUACCGAAUCGGUGGAAAAAGGUUUGGAAAGUAUUAUGUUACGCCGUUCGGAUCUGCACUUCCA | -0.31
CACAGACAACACGCACCCACACAGACACAGAGGGAAGGGGUUGGGAUGGGGACAGGGUGCCCAGCAGGGCGGGGUAGGACCCCAGCCCCU | 0.057
CACAGACAACACGCACCCAAACAGACACAGAGGGAAGGGGUUGGGAUGGGGACAGGGUGCACAGCAGGGCGGGGUAGGACCCCAGCCCCU | -0.142
GUCCUGUGCUACACAUCGUAUGUACCGAAUCGGGAAAAAAAGGGAAAAAAAGGGUGGGAAAGUAUUAUGUUACGCCGUUCGGAUCUGCAC | 0.488
GCAGGAAGUAAAAACAAAUGGAAAAGCUUCGGAUAGUGGCAGGGGUGGGGGUUGCUAAGGAAAGGGUGGGAUGGGAGUGGGUAAAGAGUU | 1.65
GCAGGAAGUAAAAACAAAUGGAAAUGCUACGGAUAGUGGCAGGGGUGGGGGUUGCUAAGGAAAGGGUGGGAUGGGAGUGGGUAAAGAGUU | 1.11
AGUCCUGUGCUACACAUCGUAUGUACCGAAUCAAAUUUAAAUUUUUUUAAACCCAAAAAAGUAUUAUGUUACGCCGUUCGGAUCUGCACU | -1.57
CACAGACAACACACACCCACACAGACACAGAGGGAAGGGGUUGGGAUGGGGACAGGGUGCACAGCAGGGCGGGGUAGGACCCCAGCCCCU | -0.173
UCAAGUCCUGUGCUACACAUCGUAUGUACCGAAUCGGGUUUGGGAAAGGGAGGGAAAGUAUUAUGUUACGCCGUUCGGAUCUGCACUUCC | 0.744
UGGCCCUGGUGGCAUGCGGGGAGGAAGAGGUGGCCUCAUGGAUCGUGGUGGUCCCGGUGGAAUGUUCAGGGGUGGCCGUGGUGGAGACAG | 1.96
UGCACUGACUGGUGGUGUCAACCCAUGGCUCAACUGGAAGCACUGUGGAAGAAGAUGGAGGGUGUGGUAAGUCCAUCAGACCUGGGACCG | -0.12
